# Assay results of several laboratories.
# Each numbered part is a random draw from the data of one study; scales do not carry over between parts. Substitutions count along the parent as printed.

# Series 1 — method: RNA Bind-n-Seq; molecule type: RNA; medium: in vitro; concentration: 365 nM; reference: no-protein control; direction: higher = stronger binding
# Target: RNA binding protein fox-1 homolog 2, RRM domain, GST-SBP tag (RBFOX2, Homo sapiens, UniProt O43251-10, residues 100-194)
# Setting: natural RNA segment, single round, ends assumed
Strand,RBNS enrichment (R)
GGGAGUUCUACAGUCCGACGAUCUUUGCAAAGUGACUCUGACUAACGCGGUUAAGAACAUCUGAACUUGGUUUCCCAAAUGACUCAGUUUUUGCUUUCUUUUCUGAAGCCCGAGUGCUAGGUAGGAAUGGCCAUGGAAUUCUCGGGUGCCAA,0.387
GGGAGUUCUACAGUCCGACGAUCAUUUUUAUAAUUAUGAUGUAACUCUAUCUUAUCCUUAAAACAUUUAAAAUAAACCCUUUAUGUGCAACUCCUGACUGUAAAGUUUGUGCUGAUGAGCAACAUGUGAUGUGUGGAAUUCUCGGGUGCCAA,0.567
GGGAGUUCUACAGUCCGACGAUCGCAAAAUUCGGAGACUUUGAUCUUUGCUACUGGAGUCCUUUAACAACAUCUAUAACGAUAAAAAAUUCCUAAUUGUUUGUGGUAGUAUUUUAAUUCUAGAUGUGUUAUCUUGGAAUUCUCGGGUGCCAA,0.918
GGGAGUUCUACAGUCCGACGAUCGCUCUCAGUAUUGUGACAGUACAUUUUUACAAGGUUGUUUUUCUACCACCGUAUUUUUAAAGUAUUUUUAUGAUCUUCGUAUACUCACACUUCGCUUGUAUUGUAAAAGGUGGAAUUCUCGGGUGCCAA,0.802
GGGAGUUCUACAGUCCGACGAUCAUAUCAAUUUCUUAAAGAACACAAAAUGUUUCCUCCCUAGCAAAACUAUUUAAGAGCCAAUUAAACUAUGAAAUAGUUAUAAAAUUAUUUUUAAUAUUUAAGGCCUUGAAUGGAAUUCUCGGGUGCCAA,0.9
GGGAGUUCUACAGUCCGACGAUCAUUUCUUAAACCGUUUUAUUUAGCCCUCCUUCCCUCUUUCUAGUUGGAAGCCAAAUGUACUCAUGAAAACAGCCACUCCUAUUCUGAGUCUUGGUUUCUUCACCUAGAAAUGGAAUUCUCGGGUGCCAA,0.475
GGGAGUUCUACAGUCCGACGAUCCCAUCAGCAGCUUGACGCGUGGUCACAGGACGAUUUCACUGACACUGCGAACUCUCAGGACUACCGUUACCAAGAGGUUAGGUGAAGUGGUUUAAACCAAACGGAACUCUUGGAAUUCUCGGGUGCCAA,0.449
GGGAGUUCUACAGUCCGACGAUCAAAGGAUGAUGGAGCUUCCUGGUGUCGGGUGAACAUGUUUUAAAAACUCAUUGUUCUAGUGAAGAUUAUGUUAAGCAAGCCUAAAAAAAGAUGACAACCAGUUCAUACACUGGAAUUCUCGGGUGCCAA,0.569
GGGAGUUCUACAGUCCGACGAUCAUCUGCACGUGACUGGCAUUUUAAAACAACUCAUUAAAUAUUGGAUUCAUUUUAUCGAGAUGCCAAGAUGAACACAAUGUGAAUAUCAUUUCCAUUUCUAAGCAGUUGAAUGGAAUUCUCGGGUGCCAA,1.34
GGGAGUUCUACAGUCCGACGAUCUGCAUACCUGUUUAGAACCAAAACCACCACGACACGGUUUUUAUAGUGUCUGUAUAUUUGUGAUGCAAUGGUCUUGUAAAGGUUUUUACUGAAAACUAUCAUUAGCCAGCUGGAAUUCUCGGGUGCCAA,0.659
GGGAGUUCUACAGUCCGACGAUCGGGCACCAGGAGACAGGGUCCAGGAAUCCAGGUAUGCCUGUACUUGCUUGAGCAACGACUGAGGGCUGCCAGCUUUUGCUGACAAGGUAGGAUGGGACCCCCAAUAAGUGUGGAAUUCUCGGGUGCCAA,0.46
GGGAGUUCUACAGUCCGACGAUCUAAGAAUAGCUAGGUUGUAUUAAAACAUGUAAGCUACUUUAAGUGAUAAAUCAAUAGCUAAAGUUUUCUCCUAACUUUAAGUCUGGUAAAUAUCUCUCAGGAAUGGAAGUUGGAAUUCUCGGGUGCCAA,0.566

# Series 2 — target: CCNA2, cyclin fold, Cln2 fusion (human); method: yeast growth competition, sequencing; medium: yeast; setting: strong parent motif; reference: not given; direction: higher = stronger binding
# Parent: ANKRD17 docking peptide (human); PSVRRQLFVTVVK; partner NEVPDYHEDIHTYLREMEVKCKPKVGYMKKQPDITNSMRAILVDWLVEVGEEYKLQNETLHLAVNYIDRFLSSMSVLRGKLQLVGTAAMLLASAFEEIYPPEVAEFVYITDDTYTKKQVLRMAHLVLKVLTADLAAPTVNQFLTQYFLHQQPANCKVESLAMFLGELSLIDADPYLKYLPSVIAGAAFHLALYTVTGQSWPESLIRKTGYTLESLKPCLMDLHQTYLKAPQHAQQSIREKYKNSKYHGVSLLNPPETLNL
Substitution,normalised enrichment score
K13A,4.99
R5A,2.94
S2A,4.67
R5K,3.45
T10A,5.36
V12A,5.58
V9A,4.67

# Series 3 — method: competition protein-binding microarray; molecule type: double-stranded DNA, one strand shown; medium: in vitro; concentration: 2 µM; with: Pho4 competitor, 0.05 µM; direction: higher = stronger binding
# Target: Centromere-binding protein 1, full length, His-tagged (CBF1, Saccharomyces cerevisiae, UniProt P17106, residues 1-351)
# Sequence of UniProt P17106 (whole entry, looked up): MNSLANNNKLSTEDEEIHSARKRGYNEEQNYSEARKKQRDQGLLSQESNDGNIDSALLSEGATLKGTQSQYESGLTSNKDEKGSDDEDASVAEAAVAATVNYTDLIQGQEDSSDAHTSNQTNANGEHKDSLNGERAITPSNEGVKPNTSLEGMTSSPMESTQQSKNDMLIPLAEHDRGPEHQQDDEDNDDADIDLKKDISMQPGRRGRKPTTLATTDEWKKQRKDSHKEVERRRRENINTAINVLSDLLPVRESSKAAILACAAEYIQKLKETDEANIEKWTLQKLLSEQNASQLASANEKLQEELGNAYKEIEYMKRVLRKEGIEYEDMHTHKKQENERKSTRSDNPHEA
# Setting: whole 60-bp probe, lowest competitor level
Strand,fluorescence intensity
TGCTGAAACAACTGGCACGCAAGGTTTTTTAGCAGCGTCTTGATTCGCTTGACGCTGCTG,81.2 a.u.
CATACCCAACCTTGGCCTGTGGGTGAAGATATTTGTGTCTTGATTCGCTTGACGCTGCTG,46.7 a.u.
AGGCGCTCGCTCTCTTCCGTGGGTACCTGCTATATAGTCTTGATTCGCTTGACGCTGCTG,55.6 a.u.
GTAGAGGTTAACGGTTCCGTGATGGAACCCATTTCTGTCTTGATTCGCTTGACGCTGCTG,68.2 a.u.
AGACAGTACGATAGCGACGTGCCAGTGTTATTGATGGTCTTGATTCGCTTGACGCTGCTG,78.8 a.u.
GGGAGACAGCGCGGCCACGTGACGGGCTTCCTCTTTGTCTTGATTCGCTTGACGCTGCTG,3790 a.u.
CTTCTGTAAATTTTTCACGTGTCGTGAAGCGCCCCGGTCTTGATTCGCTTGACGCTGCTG,634 a.u.
AAAGCGGTAATTTTTCACGTGGCTTCACATATCTATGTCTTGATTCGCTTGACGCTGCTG,983 a.u.
ATGCTGGGGATGAAACACGTTGGACGTTTTGGGGCGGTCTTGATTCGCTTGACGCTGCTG,86.8 a.u.
TAGTGGATTCTCGGAGGCGTGACTCGAGCCAGCCCAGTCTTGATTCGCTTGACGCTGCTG,201 a.u.
CTAACGAAGGTTTGTCACACCACTTACAAGCCAAGTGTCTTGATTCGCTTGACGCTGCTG,112 a.u.
CTTCTGTAAATTTTTCACGTGCCGTGAAGCGCCCCGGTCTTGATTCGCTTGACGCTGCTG,937 a.u.

# Series 4 — method: RNA Bind-n-Seq; molecule type: RNA; medium: in vitro; concentration: 200 nM; setting: whole 134-nt RNA, ends assumed; with: 150 mM KCl; reference: input library; direction: higher = stronger binding
# Target: Fragile X messenger ribonucleoprotein 1, C-terminal low-complexity region (Fmr1, Mus musculus, UniProt P35922)
Strand,log2 enrichment
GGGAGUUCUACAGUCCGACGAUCCAAGUCCUGUGCUACACAUCGUAUGUACCGAAUCGGGGUUGGGGUUGGGGUUGGGGAAAGUAUUAUGUUACGCCGUUCGGAUCUGCACUUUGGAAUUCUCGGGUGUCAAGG,1.29
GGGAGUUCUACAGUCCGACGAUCUGGCCCUGGUGGCAUGCGGGGAGGAAGAGGUGGCCUCAUGGAUCGUGGUCGUCCCGGUGGAAUGUUCAGAGGUGGCCGUGGUGGAGACAGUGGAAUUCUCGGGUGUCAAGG,-0.00262
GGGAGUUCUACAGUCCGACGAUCAGUCCUGUGCUACACAUCGUAUGUACCGAAUCGGGGAAAGGGGAAAAAGGGGUGGGGAAAGUAUUAUGUUACGCCGUUCGGAUCUGCACUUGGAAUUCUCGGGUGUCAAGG,0.468
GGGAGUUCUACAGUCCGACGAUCCAAGUCCUGUGCUACACAUCGUAUGUACCGAAUCGGGCCCGGCCCGGGGCCCGGGGAAAGUAUUAUGUUACGCCGUUCGGAUCUGCACUUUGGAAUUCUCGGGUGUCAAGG,-0.626
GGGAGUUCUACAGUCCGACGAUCAGUCCUGUGCUACACAUCGUAUGUACCGAAUCAAACCCCCAAAUUUUUAAACCCAAAAAAGUAUUAUGUUACGCCGUUCGGAUCUGCACUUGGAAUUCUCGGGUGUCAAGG,-0.00699
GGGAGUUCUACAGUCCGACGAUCCUCAAGUCCUGUGCUACACAUCGUAUGUACCGAAUCGGUGGAAAAAGGUUUGGAAAGUAUUAUGUUACGCCGUUCGGAUCUGCACUUCCAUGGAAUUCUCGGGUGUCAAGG,-0.481
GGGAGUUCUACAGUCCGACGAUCUCCCUGUCCAAGCUGAGCGCCCUCAACGAGAGCCUUGCUCAGGACAAGUUGGAUCUGAACUGCCUUGUCACCCAGGUACACUGUGCACCUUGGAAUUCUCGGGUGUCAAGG,0.652
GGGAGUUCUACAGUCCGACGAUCACCAUGCAGGUGGGCAUCUUUGGGAAGUGGGGCAAGGGGGGGAUAGGGAGGGGGGUAACACUUUGGGAACAGGUGGUCCCAGGUCGGUUCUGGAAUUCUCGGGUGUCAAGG,0.8
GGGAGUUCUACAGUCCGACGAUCAGUCCUGUGCUACACAUCGUAUGUACCGAAUCAAACCCAAACCCCCAAACCCCCAAAAAAGUAUUAUGUUACGCCGUUCGGAUCUGCACUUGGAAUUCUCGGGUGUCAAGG,-0.332

# Series 5 — method: protein-binding microarray; molecule type: double-stranded DNA, one strand shown; medium: in vitro; concentration: 250 nM; setting: 60-bp whole probe; with: salmon DNA 0.4 mg/ml; reference: random background probes; direction: higher = stronger binding; all sequences stand within: GCCTAGCAC … GTCTTGATTCGCTTGACGCTGCTG
# Target: Interferon regulatory factor 7, full length, phosphomimetic (IRF7, Homo sapiens, UniProt Q92985, residues 1-503, S101K/S471D/S472D/S475D/S476D/S477D/S483D/S484D/S487D)
# Construct (chain): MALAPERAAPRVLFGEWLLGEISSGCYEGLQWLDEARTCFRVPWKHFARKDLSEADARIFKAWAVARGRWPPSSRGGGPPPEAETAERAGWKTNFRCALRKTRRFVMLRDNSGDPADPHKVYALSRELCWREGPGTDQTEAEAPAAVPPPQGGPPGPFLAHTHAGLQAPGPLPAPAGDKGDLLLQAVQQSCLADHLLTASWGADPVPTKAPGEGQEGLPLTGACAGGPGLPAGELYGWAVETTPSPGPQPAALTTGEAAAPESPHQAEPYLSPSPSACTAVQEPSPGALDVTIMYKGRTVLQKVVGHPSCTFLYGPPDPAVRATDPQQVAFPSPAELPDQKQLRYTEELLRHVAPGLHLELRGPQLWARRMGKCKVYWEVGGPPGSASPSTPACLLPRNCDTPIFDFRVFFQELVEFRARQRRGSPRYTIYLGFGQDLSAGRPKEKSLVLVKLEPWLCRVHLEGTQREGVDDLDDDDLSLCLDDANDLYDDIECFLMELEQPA
Strand,log fluorescence
TCAAGGATGGTTTTCAGACTGTGCTAG,-0.686 z-score
GACAAACTGGGGTTTCGAGACGTGCTA,2.5 z-score
CCAAGGTTCAAGTTTACCCATGTGCTA,0.676 z-score
GACGGACTGGGTTTCGTGACGTGCTAG,0.868 z-score
GACGAACTGGGGTTTCCAGACGTGCTA,-0.513 z-score
AGGCCCTTTGCTTTCCTGATGTGCTAG,0.415 z-score
TTAGATTTCGGGTATCAATTAGTGCTA,1.22 z-score
GACGCTTTCCTTATCCTGACGTGCTAG,1.52 z-score
TTAGATATCGGGTTTCGATTAGTGCTA,7.06 z-score
GACGAACTGGGGTTTCTAGACGTGCTA,-0.155 z-score
GACGATTTCGGGCATCGAGACGTGCTA,0.101 z-score
TCACATTCCAATTCTTTTACTGTGCTA,1.44 z-score
GACGGTATCCTTTTGCTGACGTGCTAG,0.93 z-score
GAGGATTTCAGTCTCGAGACGTGCTAG,0.421 z-score
TCCCTTTCAGTTTTCCTATGGTGCTAG,1.89 z-score
GACGATTTCAGTATCGAGGCGTGCTAG,0.15 z-score
TCACATGTGGGTTCCATACTGTGCTAG,0.159 z-score
TTAGGAATCGACTATCGGTTAGTGCTA,-0.0488 z-score
TCAAATCTCTCATGTTACACTGTGCTA,0.278 z-score
CACGGACTGCTTCTCCTGACGTGCTAG,-0.206 z-score
